Results of several laboratories.
Every numbered part comes from another study and shows a few of its results, in no order.

Study 1 — method: RNA Bind-n-Seq; molecule type: RNA; matrix: in vitro; concentration: 200 nM; setting: whole 134-nt RNA, ends assumed; with: 150 mM LiCl; reference: input library; direction: higher = stronger binding; all molecules: 7-deaza-guanosine replaces G
Target: Fragile X messenger ribonucleoprotein 1, C-terminal low-complexity region (Fmr1, Mus musculus, UniProt P35922)
Shared flanks, not repeated: GGGAGUUCUACAGUCCGACGAUC … UGGAAUUCUCGGGUGUCAAGG
Strand	log2 enrichment
UUUAAACUGAAGCCGCGGCCGAAAACGCCAAGAGAUUGAUGCUGUAGCUGCCCUGAGAUAACCAGGACUGUGGAAUCGGGAAGAGCUCAU	-1.84
CCUCAAGUCCUGUGCUACACAUCGUAUGUACCGAAUCGGCGGGGCGGGGCGGAAAGUAUUAUGUUACGCCGUUCGGAUCUGCACUUCCAG	-0.189
AGUCCUGUGCUACACAUCGUAUGUACCGAAUCGGGGAGGGGUUUGGGGAAAAAGGGGAAAGUAUUAUGUUACGCCGUUCGGAUCUGCACU	-0.935
GUCCUGUGCUACACAUCGUAUGUACCGAAUCGGGGUUUUUUUGGGGUUUGGGGUGGGGAAAGUAUUAUGUUACGCCGUUCGGAUCUGCAC	-1.02
GCAGGAAGUAAAAACAAAUGGAAAUGCUUCGGAUAGUGGCAGGGGUGGGGGUUGCUAAGGAAAGGGUGGGAUAAAAGUGGGUAAAGAGUU	1.82
CUCAAGUCCUGUGCUACACAUCGUAUGUACCGAAUCGGAAAGGAAAAAGGUGGAAAGUAUUAUGUUACGCCGUUCGGAUCUGCACUUCCA	-0.772
UCCUGUGCUACACAUCGUAUGUACCGAAUCGGGAAAAAAAGGGUUUUUUUGGGUUUGGGAAAGUAUUAUGUUACGCCGUUCGGAUCUGCA	-2.34
CACAGACAACACGCACCCACACAGACACAGAGGGAAGGGGUUGGGAUGGGGACAGGGUGCACAGCAGGGAAAGGUAGGACCCCAGCCCCU	0.626

Study 2 — method: protein-binding microarray; molecule type: double-stranded DNA, one strand shown; matrix: in vitro; concentration: 2540 nM top; setting: 60-bp whole probe; with: salmon DNA 0.4 mg/ml; reference: random background probes; direction: higher = stronger binding; shared flanks, not repeated: GCCTAGCAC … GTCTTGATTCGCTTGACGCTGCTG
Target: Interferon regulatory factor 3, full length, phosphomimetic (IRF3, Homo sapiens, UniProt Q14653, residues 1-427, S386D/S396D/S398D/S402D/T404D/S405D)
UniProt Q14653, sequence (whole entry, unmodified, looked up): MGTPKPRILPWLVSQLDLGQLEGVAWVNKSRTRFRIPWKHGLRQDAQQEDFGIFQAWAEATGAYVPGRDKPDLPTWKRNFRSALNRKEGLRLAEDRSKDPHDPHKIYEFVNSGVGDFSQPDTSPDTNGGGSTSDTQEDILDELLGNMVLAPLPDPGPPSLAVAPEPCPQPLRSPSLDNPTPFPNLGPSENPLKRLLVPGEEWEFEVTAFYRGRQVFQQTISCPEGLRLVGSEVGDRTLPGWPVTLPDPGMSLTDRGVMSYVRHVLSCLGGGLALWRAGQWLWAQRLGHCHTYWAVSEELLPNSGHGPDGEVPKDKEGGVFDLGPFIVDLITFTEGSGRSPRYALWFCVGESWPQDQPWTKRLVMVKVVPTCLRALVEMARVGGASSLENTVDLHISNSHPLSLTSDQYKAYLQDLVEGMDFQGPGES
Strand	fitted relative affinity
TTAGAAGTGGGGTTTCGATTAGTGCTA	1.48 z-score
TTAGGTGTCGGTTCCGGTTAGTGCTAG	4.69 z-score
AGGACCATCCCTTATAAATAGGTGCTA	0.301 z-score
TTTCTTTTCATTACTGCATTGTGCTAG	4.7 z-score
TACGGTTTCGGTTTCGGGACGTGCTAG	10.1 z-score
GACGGTATCAGGTATCGGGACGTGCTA	2.21 z-score
ACTCTAATCTCACTCTGTCCGTGCTAG	0.631 z-score
GACGGACTGCTTTTCCAGACGTGCTAG	0.114 z-score

Other studies, line by line
Molecule	tested on	assay	system	setting	measurement	value
EED (Homo sapiens, UniProt O75530)	EZH2 (Homo sapiens, UniProt Q15910)	cross-linking MS	–	hits only	interaction screen	cross-linked
AVDADDSHF	HLA class I histocompatibility antigen, A alpha chain, allele A*25:01 (Homo sapiens, UniProt P04439)	peptide-MHC binding	peptide	concentration not given	binding	inactive
ARID1A (Homo sapiens, UniProt O14497)	SMARCD1 (Homo sapiens, UniProt Q96GM5)	cross-linking MS	–	hits only	interaction screen	cross-linked
HSP90B1 (Homo sapiens, UniProt P14625)	RAD50 (Homo sapiens, UniProt Q92878)	cross-linking MS	cell fractions	with: DSSO	cross-linked residues	K597 to S389
SPTBN2 (Homo sapiens, UniProt O15020)	BOP1 (Homo sapiens, UniProt Q14137)	cross-linking MS	cell fractions	with: DMTMM	cross-linked residues	K979 to E124

For quick reference, copied from above (study 1):
Strand	log2 enrichment
UUUAAACUGAAGCCGCGGCCGAAAACGCCAAGAGAUUGAUGCUGUAGCUGCCCUGAGAUAACCAGGACUGUGGAAUCGGGAAGAGCUCAU	-1.84
CCUCAAGUCCUGUGCUACACAUCGUAUGUACCGAAUCGGCGGGGCGGGGCGGAAAGUAUUAUGUUACGCCGUUCGGAUCUGCACUUCCAG	-0.189
AGUCCUGUGCUACACAUCGUAUGUACCGAAUCGGGGAGGGGUUUGGGGAAAAAGGGGAAAGUAUUAUGUUACGCCGUUCGGAUCUGCACU	-0.935
